Experimental data gathered from unrelated publications.
Each numbered part is a random draw from the data of one study; scales do not carry over between parts. Positions count from the first letter of the parent shown.

Set 1
Target: ABI1, truncated, D143A, DHFR fusion (Arabidopsis thaliana)
Method: DHFR PCA, deep sequencing
Sample: yeast
Setting: methotrexate growth selection, single substitutions
With: (+)-ABA 0 µM
Reference: wild-type fitted maximum
Reading: higher = stronger binding
Quantity: relative binding score
Starting sequence: PYL1, truncated, DHFR fusion (Arabidopsis thaliana); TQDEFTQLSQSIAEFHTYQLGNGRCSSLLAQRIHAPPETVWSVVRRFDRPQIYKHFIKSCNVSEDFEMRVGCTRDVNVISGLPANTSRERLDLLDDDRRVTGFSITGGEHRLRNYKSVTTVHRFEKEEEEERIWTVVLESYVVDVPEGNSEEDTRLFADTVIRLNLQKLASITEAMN; partner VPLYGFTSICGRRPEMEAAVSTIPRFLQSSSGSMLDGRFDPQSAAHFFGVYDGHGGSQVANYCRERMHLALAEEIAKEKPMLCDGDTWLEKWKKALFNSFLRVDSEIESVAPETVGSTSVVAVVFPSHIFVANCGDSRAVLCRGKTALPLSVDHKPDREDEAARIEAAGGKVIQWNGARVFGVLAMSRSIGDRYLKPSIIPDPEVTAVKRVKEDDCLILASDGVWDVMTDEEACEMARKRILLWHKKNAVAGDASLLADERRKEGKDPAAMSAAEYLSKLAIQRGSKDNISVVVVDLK
Variant = R90Q; value = 7.98%
Variant = E109K; value = -1.49%
Variant = R155S; value = -0.83%
Variant = Q51N; value = -16.4%
Variant = S104W; value = -2.96%
Variant = T119V; value = -8.27%
Variant = E131Y; value = 11.4%
Variant = R24V; value = 7%

Further values, each from its own experiment
SMN1 full length: SMN1, full length (human, UniProt Q16637, residues 1-294)
Chain of UniProt Q16637 (whole entry, looked up): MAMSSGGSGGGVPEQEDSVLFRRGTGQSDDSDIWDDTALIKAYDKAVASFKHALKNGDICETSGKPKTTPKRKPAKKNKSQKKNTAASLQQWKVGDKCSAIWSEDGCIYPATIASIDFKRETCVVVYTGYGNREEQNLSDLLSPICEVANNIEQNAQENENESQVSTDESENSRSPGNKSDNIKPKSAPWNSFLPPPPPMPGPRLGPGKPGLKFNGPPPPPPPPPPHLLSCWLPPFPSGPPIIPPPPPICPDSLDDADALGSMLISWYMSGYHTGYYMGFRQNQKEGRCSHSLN
Molecule = PYCR1 (Homo sapiens, UniProt P32322); target or system = PYCR2 (Homo sapiens, UniProt Q96C36); assay = cross-linking MS; conditions = hits only; quantity = interaction screen; value = cross-linked
Molecule = GGGCUCACCACGCACGUGGGCCAAGGUGGGGUUUGGUGUGCCUCACCACGGCAAGCU; target or system = SMN1 full length; assay = nitrocellulose filter binding; test system = RNA, in vitro; conditions = 100 nM, whole RNA, constant flanks, single concentration, ends assumed; how to read = reference: round 9 selected pool, higher = stronger binding; quantity = relative RNA binding; value = 1.6 % of pool
Molecule = COQ3 (Homo sapiens, UniProt Q9NZJ6); target or system = COQ6 (Homo sapiens, UniProt Q9Y2Z9); assay = cross-linking MS; conditions = hits only; quantity = interaction screen; value = cross-linked
Molecule = VLDMGDPVK; target or system = HLA class I histocompatibility antigen, A alpha chain, allele A*26:03 (Homo sapiens, UniProt P04439); assay = peptide-MHC binding; test system = peptide; conditions = concentration not given; quantity = binding; value = inactive
Molecule = TCP1 (Homo sapiens, UniProt P17987); target or system = CCT4 (Homo sapiens, UniProt P50991); assay = cross-linking MS; test system = cell fractions; conditions = with: DSSO; quantity = cross-linked residues; value = K126 to K55
Molecule = H2BC11 (Homo sapiens, UniProt P06899); target or system = H2AC12 (Homo sapiens, UniProt Q96KK5); assay = cross-linking MS; conditions = hits only; quantity = interaction screen; value = cross-linked
Molecule = SNRPGP15 (Homo sapiens, UniProt A8MWD9); target or system = SNRPE (Homo sapiens, UniProt P62304); assay = cross-linking MS; conditions = hits only; quantity = interaction screen; value = cross-linked
Molecule = GGGCUCACCACGCACUGUUGCGUAGAAAUUCGUUGGCUUGACCUCACCACGGCAAGCU; target or system = SMN1 full length; assay = nitrocellulose filter binding; test system = RNA, in vitro; conditions = 100 nM, whole RNA, constant flanks, single concentration, ends assumed; how to read = reference: round 9 selected pool, higher = stronger binding; quantity = relative RNA binding; value = 14 % of pool

Excerpt of the above (further values, each from its own experiment):
Molecule = COQ3 (Homo sapiens, UniProt Q9NZJ6); target or system = COQ6 (Homo sapiens, UniProt Q9Y2Z9); assay = cross-linking MS; conditions = hits only; quantity = interaction screen; value = cross-linked
Molecule = VLDMGDPVK; target or system = HLA class I histocompatibility antigen, A alpha chain, allele A*26:03 (Homo sapiens, UniProt P04439); assay = peptide-MHC binding; test system = peptide; conditions = concentration not given; quantity = binding; value = inactive
